Experimental data of several laboratories.
Lines come from different studies, so protocols differ. Several values in a cell are separate wells, animals, samples, runs or records.
Target: Ephrin type-A receptor 4 (EPHA4, Homo sapiens, UniProt P54764)
Chain of UniProt P54764 (whole entry, looked up): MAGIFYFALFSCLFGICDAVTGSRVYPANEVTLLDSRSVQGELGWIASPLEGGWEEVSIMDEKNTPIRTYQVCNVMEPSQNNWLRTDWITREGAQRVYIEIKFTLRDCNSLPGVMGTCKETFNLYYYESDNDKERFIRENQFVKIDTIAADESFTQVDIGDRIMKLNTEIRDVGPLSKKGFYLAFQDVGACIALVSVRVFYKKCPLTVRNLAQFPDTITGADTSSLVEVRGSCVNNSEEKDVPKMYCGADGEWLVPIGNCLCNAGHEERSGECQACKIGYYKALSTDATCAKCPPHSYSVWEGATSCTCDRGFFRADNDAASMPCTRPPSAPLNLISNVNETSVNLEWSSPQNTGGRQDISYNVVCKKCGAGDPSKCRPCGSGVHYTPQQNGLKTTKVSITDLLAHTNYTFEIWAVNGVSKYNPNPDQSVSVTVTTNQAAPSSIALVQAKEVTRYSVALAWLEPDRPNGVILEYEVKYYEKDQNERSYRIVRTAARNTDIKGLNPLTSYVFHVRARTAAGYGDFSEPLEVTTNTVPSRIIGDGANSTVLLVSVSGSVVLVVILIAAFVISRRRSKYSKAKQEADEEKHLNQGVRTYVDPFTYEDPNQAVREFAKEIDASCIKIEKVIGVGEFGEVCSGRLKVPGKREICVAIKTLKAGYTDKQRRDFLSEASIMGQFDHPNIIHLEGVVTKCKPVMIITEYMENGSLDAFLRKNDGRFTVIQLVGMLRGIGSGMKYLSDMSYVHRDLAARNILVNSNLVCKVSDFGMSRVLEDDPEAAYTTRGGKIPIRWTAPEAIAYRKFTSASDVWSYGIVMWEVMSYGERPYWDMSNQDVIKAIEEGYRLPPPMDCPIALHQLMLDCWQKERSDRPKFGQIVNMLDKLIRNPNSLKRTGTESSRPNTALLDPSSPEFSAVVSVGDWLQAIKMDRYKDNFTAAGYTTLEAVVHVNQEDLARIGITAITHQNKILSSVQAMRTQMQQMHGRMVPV

SMILES | test | system | conditions | how to read | quantity | value
Nc1ncc(-c2cc(-c3cnn(CC(F)(F)F)c3)ncc2F)nc1C(=O)NC1CNCC(F)C1 (stereo not drawn) | enzyme activity | – | 1 µM | relative to: DMSO control | remaining activity | 99%
N[C@H]1CC[C@H](Nc2nccc(-c3cccnc3Oc3ccc(NC(=O)NC4CC4)c4ccccc34)n2)CC1 | kinobead competition pulldown | HEK293/HCT116 lysate mixture | 10 µM, 1 h, 4 °C | lower = stronger competition | log2 LFQ intensity | 17.7 and 21.6 and 20.5 and 19.7
Cc1ccc(-c2c(/C=C(\C#N)C(=O)NC(C)C)n(CCCO)c3ncnc(N)c23)cc1 | cell-free assay, competition with immobilised ligand | – | 1 µM | – | remaining binding | 85%
NC(=O)[C@@H](O)C[C@H]1CCc2sc3ncnc(O[C@H]4CC[C@H](N5CCOCC5)CC4)c3c21 | enzyme activity, inhibitor | – | 10 µM | – | inhibition | 14%
Cc1cccc(O[C@H]2CCC[C@@H](C(C)CNCc3ccncc3)C2)c1 (relative stereo) | cell-free assay | – | 10 µM | – | inhibition | -5%
COc1cc(Nc2nccc(-c3cnn4nc(OC)ccc34)n2)cc(C(F)(F)F)c1 | binding, competition with immobilised ligand | – | 1 µM | – | remaining binding | 100%
CCN1CCN(Cc2ccc(NC(=O)c3ccc(C)c(NC(=O)c4cncc(-c5cccs5)c4)c3)cc2C(F)(F)F)CC1 | binding, competition with immobilised ligand | – | 1 µM | – | remaining binding | 2.7%
CNC1C[S+]2CC[S+]3CC[S+](C1)[Ru-4]321([N]=C=S)[n]2c3ccc(OC)cc3c3c4c(c5cc(F)c[n+]1c5c32)C(=O)NC4=O (stereo not drawn) | KinomeScan | – | 0.1 µM | relative to: untreated | remaining binding | 96%
C=CC(=O)N1CCCC(n2c(=O)c3ncccc3n(Cc3ccc(Oc4ccccc4)cc3)c2=O)C1 (stereo not drawn) | cell-free assay, competition with immobilised ligand | – | 1 µM | – | remaining binding | 100%
O=C(Cc1ccc(OCc2ccccc2)cc1)NC1(C(=O)O)CCN(C(=O)c2ccc(-c3cccc(Cl)c3)cc2)CC1 | enzyme activity, inhibitor | – | 10 µM | – | activity vs control | 116%
C=CC(=O)Nc1cccc(-c2cnc3[nH]cc(C(=O)NC(C)(C)C)c3n2)c1 | kinase activity | – | 0.1 µM | – | inhibition | 6% and -2%
CCN1CCN(Cc2ccc(C(=O)Nc3ccc(C)c(NCc4cnc5[nH]ccc5c4OC)c3)cc2C(F)(F)F)CC1 | binding, competition with immobilised ligand | – | 1 µM | – | remaining binding | 10%
Cc1nc2c(F)cc(-c3nc(Nc4ccc(CNC(=O)CCCCCCC(=O)NO)cc4)ncc3F)cc2n1C(C)C | enzyme activity, inhibitor | – | 1 µM | – | inhibition | 39%
COc1c(OCCCN2CCOCC2)ccc2c1N=C(NC(=O)c1cnc(N)nc1)N1CCN=C21 | kinase activity, inhibitor | – | 1 µM | relative to: untreated control | remaining activity | 119%
Nc1ncc2c(n1)-c1c([nH]c3ccc(C4=CCOCC4)cc13)CCC2 | binding, competition with immobilised ligand | – | 1 µM | – | remaining binding | 90%

For quick reference, copied from above:
SMILES | test | system | conditions | how to read | quantity | value
NC(=O)[C@@H](O)C[C@H]1CCc2sc3ncnc(O[C@H]4CC[C@H](N5CCOCC5)CC4)c3c21 | enzyme activity, inhibitor | – | 10 µM | – | inhibition | 14%
Cc1cccc(O[C@H]2CCC[C@@H](C(C)CNCc3ccncc3)C2)c1 (relative stereo) | cell-free assay | – | 10 µM | – | inhibition | -5%
